Published values from different studies.
Protocols differ between the studies behind these lines. Several values in a cell are separate wells, animals, samples, runs or records. Numbers after ± are the reported error.
Pancreatic alpha-amylase: Pancreatic alpha-amylase (Homo sapiens, UniProt P04746)
Chain of UniProt P04746 (whole entry, looked up): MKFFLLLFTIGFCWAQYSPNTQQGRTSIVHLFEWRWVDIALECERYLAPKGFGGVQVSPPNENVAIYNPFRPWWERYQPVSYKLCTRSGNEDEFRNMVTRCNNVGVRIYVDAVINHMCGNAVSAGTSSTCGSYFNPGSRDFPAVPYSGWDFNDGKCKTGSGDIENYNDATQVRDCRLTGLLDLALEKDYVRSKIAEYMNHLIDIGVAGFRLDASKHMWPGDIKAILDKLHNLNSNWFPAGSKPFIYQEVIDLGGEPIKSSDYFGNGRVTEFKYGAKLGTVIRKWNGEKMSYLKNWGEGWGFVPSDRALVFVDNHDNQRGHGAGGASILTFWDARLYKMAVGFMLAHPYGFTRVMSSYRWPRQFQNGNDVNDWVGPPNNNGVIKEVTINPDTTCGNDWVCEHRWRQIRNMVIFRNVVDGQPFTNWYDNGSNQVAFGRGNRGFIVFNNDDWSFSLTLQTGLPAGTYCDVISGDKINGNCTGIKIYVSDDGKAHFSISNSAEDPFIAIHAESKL
Coatomer subunit beta' WD repeat domain: Coatomer subunit beta', WD repeat domain (Homo sapiens, UniProt P35606)
Chain of UniProt P35606 (whole entry, looked up): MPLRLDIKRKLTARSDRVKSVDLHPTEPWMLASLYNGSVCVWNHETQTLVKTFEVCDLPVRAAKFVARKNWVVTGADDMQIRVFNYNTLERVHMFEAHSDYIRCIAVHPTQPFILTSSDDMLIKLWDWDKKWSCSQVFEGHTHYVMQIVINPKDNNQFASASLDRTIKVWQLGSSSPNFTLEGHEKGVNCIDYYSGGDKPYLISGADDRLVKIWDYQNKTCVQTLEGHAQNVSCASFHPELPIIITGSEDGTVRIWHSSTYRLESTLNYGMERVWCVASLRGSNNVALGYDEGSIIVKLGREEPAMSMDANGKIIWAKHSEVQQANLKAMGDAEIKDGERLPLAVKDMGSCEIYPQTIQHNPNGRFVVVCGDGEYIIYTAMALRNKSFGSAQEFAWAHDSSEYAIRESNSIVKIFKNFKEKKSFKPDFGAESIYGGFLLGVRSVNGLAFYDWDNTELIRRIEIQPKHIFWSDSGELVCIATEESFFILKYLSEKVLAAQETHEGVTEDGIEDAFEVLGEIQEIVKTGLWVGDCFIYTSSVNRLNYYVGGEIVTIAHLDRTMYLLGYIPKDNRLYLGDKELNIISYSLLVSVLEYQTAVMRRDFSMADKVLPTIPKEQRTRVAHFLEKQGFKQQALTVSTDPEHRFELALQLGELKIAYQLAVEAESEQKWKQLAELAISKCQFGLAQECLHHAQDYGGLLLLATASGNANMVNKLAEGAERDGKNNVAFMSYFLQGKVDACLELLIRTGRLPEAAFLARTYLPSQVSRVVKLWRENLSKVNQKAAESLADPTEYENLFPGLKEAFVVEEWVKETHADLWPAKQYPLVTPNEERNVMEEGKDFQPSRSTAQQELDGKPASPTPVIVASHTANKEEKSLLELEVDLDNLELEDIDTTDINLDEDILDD
Nuclear receptor subfamily 2 group C member 2 ligand-binding domain: Nuclear receptor subfamily 2 group C member 2, ligand-binding domain (Homo sapiens, UniProt P49116)
Chain of UniProt P49116 (whole entry, looked up): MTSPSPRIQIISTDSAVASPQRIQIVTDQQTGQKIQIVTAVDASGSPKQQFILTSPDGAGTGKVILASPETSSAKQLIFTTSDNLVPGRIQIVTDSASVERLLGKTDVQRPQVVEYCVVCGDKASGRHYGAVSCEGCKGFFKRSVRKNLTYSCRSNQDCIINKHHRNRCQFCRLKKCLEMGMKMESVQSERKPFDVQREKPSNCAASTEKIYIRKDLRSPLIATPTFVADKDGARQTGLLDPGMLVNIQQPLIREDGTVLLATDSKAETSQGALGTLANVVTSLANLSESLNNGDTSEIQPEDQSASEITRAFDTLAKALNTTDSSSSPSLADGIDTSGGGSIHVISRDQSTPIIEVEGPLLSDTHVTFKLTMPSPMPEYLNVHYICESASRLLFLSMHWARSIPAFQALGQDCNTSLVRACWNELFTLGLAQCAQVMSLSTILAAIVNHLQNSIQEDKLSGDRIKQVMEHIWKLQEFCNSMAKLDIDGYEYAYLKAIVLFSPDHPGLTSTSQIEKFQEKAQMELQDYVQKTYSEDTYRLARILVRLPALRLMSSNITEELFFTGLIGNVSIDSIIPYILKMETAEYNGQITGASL
XPO1: Exportin-1 (XPO1, Homo sapiens, UniProt O14980)
Chain of UniProt P51575 (whole entry, unmodified, looked up): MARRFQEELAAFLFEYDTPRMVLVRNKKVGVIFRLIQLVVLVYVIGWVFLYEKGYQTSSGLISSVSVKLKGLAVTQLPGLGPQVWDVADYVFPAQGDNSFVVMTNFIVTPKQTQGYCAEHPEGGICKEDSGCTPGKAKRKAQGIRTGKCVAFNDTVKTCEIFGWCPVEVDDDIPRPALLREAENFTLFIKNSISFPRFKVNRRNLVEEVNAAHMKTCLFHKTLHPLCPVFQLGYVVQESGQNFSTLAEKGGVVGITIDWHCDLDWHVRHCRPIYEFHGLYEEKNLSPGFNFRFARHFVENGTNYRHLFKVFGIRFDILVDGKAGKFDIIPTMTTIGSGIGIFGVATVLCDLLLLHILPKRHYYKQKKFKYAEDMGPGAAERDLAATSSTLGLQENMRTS
Chain of UniProt O14980 (whole entry, looked up): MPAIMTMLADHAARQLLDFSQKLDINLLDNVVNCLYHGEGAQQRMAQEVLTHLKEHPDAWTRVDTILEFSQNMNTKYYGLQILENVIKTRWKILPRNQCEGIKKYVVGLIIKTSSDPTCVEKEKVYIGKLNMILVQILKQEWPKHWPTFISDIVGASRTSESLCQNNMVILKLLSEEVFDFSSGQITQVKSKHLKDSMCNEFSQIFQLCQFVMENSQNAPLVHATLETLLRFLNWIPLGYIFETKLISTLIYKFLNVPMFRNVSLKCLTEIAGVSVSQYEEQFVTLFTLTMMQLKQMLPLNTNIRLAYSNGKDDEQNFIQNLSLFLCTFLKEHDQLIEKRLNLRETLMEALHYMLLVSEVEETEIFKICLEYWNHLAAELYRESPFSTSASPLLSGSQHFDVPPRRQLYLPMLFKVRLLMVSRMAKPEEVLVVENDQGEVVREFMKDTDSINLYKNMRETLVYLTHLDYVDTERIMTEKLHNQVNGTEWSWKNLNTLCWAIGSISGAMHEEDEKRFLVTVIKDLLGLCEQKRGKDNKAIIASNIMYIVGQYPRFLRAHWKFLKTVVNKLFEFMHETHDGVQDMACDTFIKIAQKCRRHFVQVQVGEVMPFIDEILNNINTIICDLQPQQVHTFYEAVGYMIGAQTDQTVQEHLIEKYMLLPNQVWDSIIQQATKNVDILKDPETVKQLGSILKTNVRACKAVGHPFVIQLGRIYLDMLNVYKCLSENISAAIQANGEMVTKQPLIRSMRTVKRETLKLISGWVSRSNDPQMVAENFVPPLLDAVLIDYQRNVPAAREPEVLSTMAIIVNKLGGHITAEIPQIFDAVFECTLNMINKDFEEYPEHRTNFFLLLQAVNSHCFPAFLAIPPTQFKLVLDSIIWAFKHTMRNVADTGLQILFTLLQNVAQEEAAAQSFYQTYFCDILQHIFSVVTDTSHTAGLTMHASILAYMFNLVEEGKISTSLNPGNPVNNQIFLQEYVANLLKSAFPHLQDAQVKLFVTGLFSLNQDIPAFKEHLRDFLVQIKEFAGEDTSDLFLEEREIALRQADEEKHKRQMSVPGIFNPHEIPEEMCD
Chain of UniProt Q16774 (whole entry, unmodified, looked up): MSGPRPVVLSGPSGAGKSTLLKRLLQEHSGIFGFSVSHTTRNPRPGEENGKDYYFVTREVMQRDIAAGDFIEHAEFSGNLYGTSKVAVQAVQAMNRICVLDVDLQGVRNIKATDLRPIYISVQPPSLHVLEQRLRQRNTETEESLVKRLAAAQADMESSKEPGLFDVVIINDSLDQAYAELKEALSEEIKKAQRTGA
Chain of UniProt P61619 (whole entry, looked up): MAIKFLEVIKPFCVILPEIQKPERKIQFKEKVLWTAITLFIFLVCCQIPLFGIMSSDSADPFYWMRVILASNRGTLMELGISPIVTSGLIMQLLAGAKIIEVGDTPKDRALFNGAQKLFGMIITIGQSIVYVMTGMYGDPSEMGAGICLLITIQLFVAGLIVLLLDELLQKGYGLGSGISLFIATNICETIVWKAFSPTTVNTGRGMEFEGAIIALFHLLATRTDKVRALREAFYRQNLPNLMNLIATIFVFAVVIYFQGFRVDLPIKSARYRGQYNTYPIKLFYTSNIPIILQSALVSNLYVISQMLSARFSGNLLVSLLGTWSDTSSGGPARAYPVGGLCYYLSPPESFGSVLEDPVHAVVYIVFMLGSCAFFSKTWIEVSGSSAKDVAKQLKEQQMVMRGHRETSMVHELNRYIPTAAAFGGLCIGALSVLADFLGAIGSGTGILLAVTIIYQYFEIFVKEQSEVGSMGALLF
Chain of UniProt P12763 (whole entry, unmodified, looked up): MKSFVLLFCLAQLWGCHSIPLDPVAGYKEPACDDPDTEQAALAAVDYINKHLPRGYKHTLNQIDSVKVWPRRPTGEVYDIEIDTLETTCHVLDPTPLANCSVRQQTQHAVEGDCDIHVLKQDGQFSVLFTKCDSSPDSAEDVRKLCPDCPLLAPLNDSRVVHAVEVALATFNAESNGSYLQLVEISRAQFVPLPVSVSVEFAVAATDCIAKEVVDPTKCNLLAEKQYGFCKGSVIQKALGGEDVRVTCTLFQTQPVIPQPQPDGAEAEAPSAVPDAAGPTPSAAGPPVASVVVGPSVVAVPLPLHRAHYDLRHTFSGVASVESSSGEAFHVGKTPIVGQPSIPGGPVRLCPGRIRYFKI
Chain of UniProt O94921 (whole entry, looked up): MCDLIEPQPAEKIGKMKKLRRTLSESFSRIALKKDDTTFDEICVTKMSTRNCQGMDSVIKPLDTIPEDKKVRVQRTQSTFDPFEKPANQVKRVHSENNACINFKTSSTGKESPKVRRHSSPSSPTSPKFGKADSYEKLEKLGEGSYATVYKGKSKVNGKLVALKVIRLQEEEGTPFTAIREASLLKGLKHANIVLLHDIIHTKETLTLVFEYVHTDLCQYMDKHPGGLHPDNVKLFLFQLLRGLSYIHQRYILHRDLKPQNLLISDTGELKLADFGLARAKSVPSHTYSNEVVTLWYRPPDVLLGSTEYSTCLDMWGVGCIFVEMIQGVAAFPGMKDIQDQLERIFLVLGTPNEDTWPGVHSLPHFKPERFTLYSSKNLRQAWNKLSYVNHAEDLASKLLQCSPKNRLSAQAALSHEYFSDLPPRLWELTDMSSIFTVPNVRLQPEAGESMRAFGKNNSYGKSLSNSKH

Compound | target or system | test | test system | conditions | how to read | measurement | result
Cn1cc(-c2cnc3ccc(NC(=O)Nc4ccc(F)c(Br)c4)cc3n2)cn1 | Inhibitor of nuclear factor kappa-B kinase subunit beta (IKBKB, Homo sapiens, UniProt O14920) | kinase binding, KiNativ profiling, item: Lys1 peptide | PANC-1 lysate | 2.5 µM | – | inhibition | 9.5%
CCCCC[S+]([O-])c1n[nH]c(N)n1 (centres unmarked) | F-box only protein 22, with SKP1 (Homo sapiens, UniProt Q8NEZ5) | binding, affinity selection mass spectrometry | – | – | reference: other proteins in batch | fold enrichment | 0.76
CC(C)OCCn1c(=S)[nH]c(=O)c2[nH]ccc21 | Myeloperoxidase (MPO, Homo sapiens, UniProt P05164) | H2O2 consumption, inhibitor, H2O2 electrode | – | 0.68 µM, 0.3 s | – | H2O2 concentration | 0.288 µM
C=C1CN(S(=O)(=O)c2ccc(C)cc2)CCCN(Cc2ccccc2)CCCN(S(=O)(=O)c2ccc(C)cc2)C1 | Protein transport protein Sec61 subunit alpha isoform 1 (Homo sapiens, UniProt P61619) | Sec61-dependent translocation, inhibitor, item: CD4 signal peptide-FLuc reporter | HEK293 | concentration not given, 6 h | – | FLuc/RLuc ratio | 0.51
CN(C)C(=O)C(CCN1CCC(O)(c2ccc(Cl)cc2)CC1)(c1ccccc1)c1ccccc1 | Calcium-activated potassium channel subunit alpha-1, with LRRC26 γ1 subunit (KCNMA1, Homo sapiens, UniProt Q12791) | BK current, inside-out patch clamp | excised membrane patch | 3 µM, γ1 coexpressed, individual fits, with: nominally 0 Ca2+ cytosolic | – | effective gating valence | 1.11 ± 0.12 elementary charges
C[C@H](N)C(=O)N[C@@H](C)C(=O)N[C@H](C(=O)N[C@@H](CCCCN)C(=O)N[C@@H](CCC(N)=O)C(=O)N[C@H](C(=O)N[C@@H](C)C(=O)N[C@@H](CCCNC(=N)N)C(=O)N[C@@H](CCCCN)C(=O)N[C@@H](CO)C(=O)O)[C@@H](C)O)[C@@H](C)O | Transcriptional regulator ATRX (ATRX, Homo sapiens, UniProt P46100, F284Y/K251R) | isothermal titration calorimetry | – | pH 7.5, 25.0 °C | – | binding free energy | -5.32 kcal/mol
C1=C/COCc2cc(ccc2OCCN2CCCC2)Nc2nccc(n2)-c2cccc(c2)COC/1 | Cyclin-dependent kinase 14 (CDK14, Homo sapiens, UniProt O94921) | – | – | concentration not given, gene name PFTK1 | – | percent of control | 87%
CC1(C)Cc2c(sc(NC(=O)c3ccn[nH]3)c2C(N)=O)C(C)(C)O1 | Cystic fibrosis transmembrane conductance regulator (CFTR, Homo sapiens, UniProt P13569, F312A) | single-channel patch clamp | – | 20 µM, with: ATP 2 mM | – | open probability | 0.79 ± 0.03
O=C1OC(c2ccccc2)=N/C1=C\c1ccc(O)cc1 | Pancreatic alpha-amylase | inhibitor, Lineweaver-Burk | – | 100 ppm, with: starch substrate | – | Km | 1400 µM
CCCC[C@H]1CN(c2cccc(OC(F)(F)F)c2)C(=O)CN1Cc1cncn1Cc1ccc(Br)cc1 | Protein farnesyltransferase (Cryptococcus neoformans, UniProt J9VSJ6+T2BPA1) | uncompetitive inhibitor | – | L state, no phosphate | – | Ki | 0.75 µM
N#Cc1ccc2c(-c3ccncc3)c(-c3ccc(F)cc3)nn2c1 | Serine/threonine-protein kinase CBK1 (CBK1, Candida albicans, UniProt Q5AP53) | kinase binding, competitor, MIB/MS competition, item: CBK1 | Candida albicans cell lysate | 100 nM | reference: DMSO | log2 fold change | 0.547
N#Cc1ccc(Cn2cncc2CN2CCN(c3cccc(OC(F)(F)F)c3)C(=O)C2)cc1 | Cryptococcus neoformans farnesyltransferase | enzyme activity, inhibitor, fluorescence | – | with: 1 µM FPP, 0.5 µM dansylated peptide | – | IC50 | 2.7 ± 1.1 µM
Nc1ncnc2c1ncn2[C@@H]1O[C@H](COP(=O)(O)OP(=O)(O)OP(=O)(O)O)[C@@H](O)[C@H]1O | ATP-sensitive inward rectifier potassium channel 1 (Rattus norvegicus, UniProt P35560) | channel activity, inhibitor, inside-out patch clamp | – | pH 7.4, Mg2+-free, no second inhibitory nucleotide | – | concentration for complete inhibition | 1 mM
O=P(O)(O)OC[C@H](O)CO | glycerol-3-phosphate acyltransferase, mouse | substrate | mouse testis total membranes | pH 7.5, room temperature, with: palmitoyl-CoA | – | Km | 578 ± 34 µM
Cc1cccc(N2CC(C(=O)O)CC2=O)c1 (centres unmarked) | Coatomer subunit beta' WD repeat domain | binding, affinity selection mass spectrometry | – | – | reference: other proteins in batch | log fold enrichment | 0.0262
Nc1nc2c(ncn2[C@@H]2O[C@H](COP(=O)(O)O)[C@@H](O)[C@H]2O)c(=O)[nH]1 | GUK1 (Homo sapiens, UniProt Q16774, R44A) | enzyme activity, NADH-coupled | – | 31.25 µM | – | reaction rate | -0.0375 s⁻¹ and -0.897 s⁻¹ and -0.503 s⁻¹
CC(=O)N[C@@H](COP(=O)(O)O)C(=O)N1CCC[C@H]1C(=O)N[C@H](C(=O)N[C@@H](Cc1ccccc1)C(N)=O)[C@@H](C)O | Breast cancer type 1 susceptibility protein, tandem BRCT domains (BRCA1, Homo sapiens, UniProt P38398) | binding, isothermal titration calorimetry | – | BRCT domain, BACH1 peptide | – | −TΔS | 6.3 ± 1.1 kcal/mol
O=C(O)CCCC[C@@H]1SC[C@@H]2NC(=O)N[C@@H]21 | Nuclear receptor subfamily 2 group C member 2 ligand-binding domain | SPR imaging | – | 600 nM | – | koff | 5.93e-07 s⁻¹
CC[C@H](C)[C@@H]1NC(=O)[C@H]([C@@H](C)O)NC(=O)[C@@H]2CCCN2C(=O)[C@H](CC(C)C)NC(=O)[C@H](Cc2ccc(O)cc2)NC(=O)CSC[C@@H](C(N)=O)NC(=O)[C@H](CC(C)C)NC(=O)[C@@H]2CCCN2C(=O)[C@H](Cc2c[nH]cn2)NC(=O)[C@H](Cc2c[nH]c3ccccc23)NC(=O)[C@H](CC(C)C)NC(=O)[C@H](Cc2c[nH]cn2)NC(=O)CNC(=O)[C@H](C(C)C)NC(=O)CNC(=O)[C@H]([C@@H](C)O)NC1=O | VPS35/VPS29 (Homo sapiens, UniProt Q96QK1+Q9UBQ0) | binding, isothermal titration calorimetry | – | 25 °C | – | ΔH | -8.7 ± 1.7 kcal/mol
Clc1cccc(OC[C@H]2CN(CCN3CCc4ccccc43)CCO2)c1 | D(1B) dopamine receptor (DRD5, Homo sapiens, UniProt P21918) | radioligand binding | – | concentration not given, with: [3H]SCH23390 | – | inhibition | -4.8%
CCS(=O)(=O)c1nc(C2CC2)cc(C(F)(F)F)n1 | XPO1 | nuclear export, high content imaging | HeLa Kyoto reporter | 15.8 µM, 2 h | – | cells with nuclear reporter | 5.81% and 4.97%
O=C([O-])c1ccccc1O.[Na+] | Nuclear receptor subfamily 2 group C member 2 ligand-binding domain | SPR imaging | – | 600 nM | – | koff | 2.26e-05 s⁻¹
CC1(C)CC2(C)OC(=O)NC2(C)c2ccccc21 (centres unmarked) | Coatomer subunit beta' WD repeat domain | binding, affinity selection mass spectrometry | – | – | reference: other proteins in batch | log fold enrichment | -0.137
Oc1ccccc1-c1n[nH]cc1-c1ccnc2ccccc12 | Serine/threonine-protein kinase GIN4 (GIN4, Candida albicans, UniProt Q59W62) | kinase binding, MIB/MS competition | Candida albicans lysate | 10 µM | reference: DMSO, negative = stronger binding | log2 fold change | 0.17

Compound | target or system | test | test system | conditions | how to read | measurement | result
C=CC(=O)N1CCC(C(=O)NCC(=O)N2CCN(c3nc(-c4cnc(N)nc4C(F)F)nc(N4CCOCC4)n3)CC2)CC1 | Epidermal growth factor receptor (EGFR, Homo sapiens, UniProt P00533, T790M) | KINOMEscan | – | 1 µM | – | remaining binding | 90%
C[C@]12O[C@H](C[C@]1(O)CO)n1c3ccccc3c3c4c(c5c6ccccc6n2c5c31)CNC4=O | OCI-Ly1 | – | – | 0.1 µM, 120 h | – | viability | 17.9%
Nc1nc2c(ncn2[C@@H]2O[C@H](COP(=O)(O)OP(=O)(O)O)[C@@H](O)[C@H]2O)c(=O)[nH]1 | GUK1 (Homo sapiens, UniProt Q16774, R137A) | binding, ITC | – | – | – | ΔH | -8.59 ± 0.4 kcal/mol
O=C1/C(=C2/C(=O)N(Cc3ccc(F)cc3)c3ccccc32)SC(=S)N1CCCCCCO | Serotonin N-acetyltransferase (Ovis aries, UniProt Q29495) | enzyme activity, inhibitor | – | concentration not given, with: acetyl-CoA | – | activity class | inactive
Cc1nc(CSc2nc(SCc3ccc(C(C)C)cc3)nc(=O)[nH]2)cs1 | DNA topoisomerase 2-alpha (TOP2A, Homo sapiens, UniProt P11388) | decatenation | – | 15.6 µM | – | mean decatenated DNA | 52.4%
C[S+](CC[C@H](N)C(=O)O)C[C@H]1O[C@@H](n2cnc3c(N)ncnc32)[C@H](O)[C@@H]1O (some centres unmarked) | O-methyltransferase (Sorghum bicolor, UniProt A0A1B6PFV1) | isothermal titration calorimetry | – | concentration not given, apo protein | – | ΔH of binding | -5.94 ± 0.742 kcal/mol
CC(Nc1nc(N2CCCC2)nc2ccccc12)c1ccccc1 (centres unmarked) | XPO1 | nuclear export, high content imaging | HeLa Kyoto reporter | 3.17 µM, 2 h | – | cells with nuclear reporter | 1.42% and 5.32% and 3.37%
O=C1OC(c2ccccc2)=N/C1=C\c1ccccc1 | Pancreatic alpha-amylase | inhibitor, Lineweaver-Burk | – | 300 ppm, with: starch substrate | – | Km | 895 µM
O=C(O)c1ccc(O)c2ncccc12 | OCI-Ly1 | – | – | 0.5 µM, 120 h | – | viability | 151%
CCS(=O)(=O)N1CC(CC#N)(n2cc(-c3ncnc4[nH]ccc34)cn2)C1 | Alpha-1-acid glycoprotein 1 (ORM1, Homo sapiens, UniProt P02763) | fluorescence quenching | – | 293-308 K | – | fraction of accessible fluorophore | 0.53 to 0.69
Nc1ncnc2c1ncn2[C@@H]1O[C@H](COP(=O)(O)CP(=O)(O)OP(=O)(O)O)[C@@H](O)[C@H]1O | P2X purinoceptor 1 (P2RX1, Homo sapiens, UniProt P51575, K136W) | calcium influx | – | 1 µM | reference: ionomycin response | calcium influx | 96.2% and 100% and 96.4%
CC(C)C[C@@H]1NC(=O)[C@H](C(C)C)NC(=O)CNC(=O)[C@H](CC(N)=O)NC(=O)[C@@H]2CCCN2C(=O)[C@H](Cc2ccc(O)cc2)NC(=O)[C@H](CCCNC(=N)N)NC(=O)[C@H](Cc2ccccc2)NC(=O)[C@@H](NC(=O)[C@H](CCCCN)NC(=O)[C@H](C)NC(=O)[C@H](CO)NC(=O)[C@H](C)NC(=O)[C@@H](N)Cc2ccc(O)cc2)CSSC[C@@H](C(=O)N[C@H](C(N)=O)[C@@H](C)O)NC(=O)[C@H](C)NC1=O | Alpha-2-HS-glycoprotein, asialo (AHSG, Bos taurus, UniProt P12763) | binding, isothermal titration calorimetry | – | pH 7.0, 25 °C, with: asialofetuin | – | -ΔH | 2.38 kcal/mol
O=C(COP(=O)(O)O)[C@@H](O)[C@H](O)[C@H](O)COP(=O)(O)O | Pyridoxal-dependent decarboxylase domain-containing protein 1 (PDXDC1, Homo sapiens, UniProt Q6P996) | thermal proteome profiling, item: PDXDC1 | HepG2 cell lysate | concentration not given, 57 over 37 °C, mean | reference: compound over control | thermal stability ratio | 0.58
N#Cc1ccc2[nH]cc(CCCCN3CCN(c4ccc5oc(C(N)=O)cc5c4)CC3)c2c1 | Sodium-dependent serotonin transporter (SLC6A4, Homo sapiens, UniProt P31645) | serotonin uptake, inhibitor | COS-7 expressing SLC6A4 | 45 min preincubation, with: [3H]5-HT | – | Hill coefficient | 2.48 ± 0.41
CN(C)CCC(c1ccccc1)c1ccccn1 (centres unmarked) | Nuclear receptor subfamily 2 group C member 2 ligand-binding domain | SPR imaging | – | 600 nM | – | koff | 6.48e-07 s⁻¹
C=CC(=O)N1CCN(c2nc(OC[C@@H]3CCCN3C)nc3c(F)c(-c4nc(N)cc(C)c4C(F)(F)F)c(Cl)cc23)[C@@H](C)C1 | GTPase KRas, GDP-bound (KRAS, Homo sapiens, UniProt P01116, G13D) | SPR | – | – | – | dissociation rate constant koff | 0.0803 ± 0.0045 s⁻¹
Nc1c(Br)cc(Br)cc1CN[C@H]1CC[C@H](O)CC1 | Sodium channel protein type 1 subunit alpha (SCN1A, Homo sapiens, UniProt P35498) | ion current | – | 3 µM, 0.08333 h | – | activation | -182%
C=CC(=O)N1CCC(COCC(=O)N2CCN(c3nc(-c4cnc(N)nc4C(F)F)nc(N4CCOC[C@@H]4C)n3)CC2)CC1 | Dual specificity mitogen-activated protein kinase kinase 5 (MAP2K5, Homo sapiens, UniProt Q13163) | KINOMEscan | – | 1 µM | – | remaining binding | 96%
Cn1nnc2c(C(N)=O)ncn2c1=O | Nuclear receptor subfamily 2 group C member 2 ligand-binding domain | SPR imaging | – | 600 nM | – | koff | 5.21e-05 s⁻¹
[H]/N=C(/N)NCC(=O)O | Sodium- and chloride-dependent taurine transporter (SLC6A6, Homo sapiens, UniProt P31641, L306A) | binding, microscale thermophoresis | – | 15.6 µM, room temperature, with: 50 nM labelled protein | higher = more binding | normalised MST signal | 0.0217
CC[C@@H]1[C@H](F)C(=O)N[C@@H]1COc1nccc2cc(C(N)=O)c(OC)cc12 | Serine/threonine-protein kinase MARK2 (MARK2, Homo sapiens, UniProt Q7KZI7) | ATP-site probe binding, ActivX profiling | THP-1 cell lysate | 0.04 mM, Lys2 site | – | inhibition | 0.7%
Cc1ccccc1C(=O)Nc1ccc(C(=O)N2CCCC(O)c3cc(Cl)ccc32)c(C)c1 (centres unmarked) | Nuclear receptor subfamily 2 group C member 2 ligand-binding domain | SPR imaging | – | 600 nM | – | koff | 1.97e-07 s⁻¹
CCN1CCC[C@H]1CNC(=O)c1c(O)c(Cl)cc(Cl)c1OC | G-protein coupled bile acid receptor 1 (GPBAR1, Homo sapiens, UniProt Q8TDU6) | receptor activation, TANGO luminescence | – | concentration not given, unconfirmed screen | reference: vehicle control | log2 fold change | -0.345
